Measured values gathered from unrelated publications.
Protocols differ between the studies behind these lines. Several values in a cell are separate wells, animals, samples, runs or records. Numbers after ± are the reported error.

c1ccc2ncc(Nc3c4c(nc5ccccc35)CCCC4)cc2c1 — viability (SH-SY5Y; MTT; 50 µM, 1 h pretreatment, 10% FBS, together with: H2O2): 52 ± 2.26%
COC(=O)C1=CO[C@@H](O)[C@@H]2C(Cn3cc(-c4ccc(F)cc4)nn3)=CC[C@H]12 — viability (SK-N-SH; neuroprotection, MTT; 0.6 µM, 24 h, together with: 250 µM H2O2): 59.9 ± 0.7%
[Cl][Ag].[Se]=c1n(C2CCCCC2)ccn1C1CCCCC1 — resistance factor (LoVo MDR; MTT; baseline: LoVo MDR over LoVo): 1.5
CCCCCCCCC1(CCCCCCCC)c2cc(-c3cc4[n+]5c(c3)-c3cccc[n+]3[Ir-3]536([c]5c(c(C)cc(C)c5-c5cccc[n+]53)-c3cccc[n+]36)[n+]3ccccc3-4)ccc2-c2ccc(-c3cc4[n+]5c(c3)-c3cccc[n+]3[Ir-3]536([c]5c(c(C)cc(C)c5-c5cccc[n+]53)-c3cccc[n+]36)[n+]3ccccc3-4)cc21.F[P-](F)(F)(F)(F)F.F[P-](F)(F)(F)(F)F.F[P-](F)(F)(F)(F)F.F[P-](F)(F)(F)(F)F — phototherapeutic index (SK-MEL-28; red light 100 J/cm2; baseline: dark EC50 over red-light EC50): 1
CSCC[C@H](NC(=O)[C@H](CC(C)C)NC(=O)[C@H](Cc1c[nH]cn1)NC(=O)CNC(=O)[C@@H](NC(=O)[C@H](C)NC(=O)[C@H](Cc1c[nH]c2ccccc12)NC(=O)[C@H](CCC(N)=O)NC(=O)CCCCCCCNC(=O)[C@@H](CO)NC(=O)[C@@H](CO)NC(=O)[C@@H](CCCCNC(=O)Cn1ccnc1[N+](=O)[O-])NC(=O)CN1CCN(CC(=O)O)CCN(CC(=O)O)CCN(CC(=O)O)CC1)C(C)C)C(N)=O [indium-111 labelled] — hypoxia enhancement factor (PC-3; 8 h; baseline: hypoxic over normoxic): 1.95 ± 0.28
Cc1cc(C)c(N2CCN(c3c(C)cc(C)cc3C)C2=[Se])c(C)c1.[Cl][Ag] — resistance factor (LoVo-OXP colon cancer cells; MTT; baseline: LoVo-OXP over LoVo IC50): 0.8
CC/C=C\C/C=C\C/C=C\C/C=C\C/C=C\C/C=C\CCC(=O)Nc1ccn(C2OC(CO)C(O)C2(F)F)c(=O)n1 (centres unmarked) — CC50 (SK-MEL-28; NCI60 screen): 53800 nM
CCOC(=O)c1ccc(NC(=S)Nc2ccc3c(c2)C(C)(C)CC(C)(C)S3)cc1 — maximum growth inhibition (HK-2; MTS; range over 1 to 12.5 µM, 48 h): 35.3 ± 2.09%
CC1OC2OC3C4=C(OC3(C)C12O)C(=O)c1c(O)cccc1C4=O (centres unmarked) — selectivity index (MDA-MB-231 and HFF; MTT; baseline: CC50 HFF over EC50 MDA-MB-231): 3.17
CC1(C(=O)O)CCCC2(C)C1CCC1(C)c3cocc3CCC12 (centres unmarked) — mRNA level (LNCaP; qRT-PCR, item: AR; 10 µM, absence of androgen): decreased
N=C(N)Nc1ccc(-c2nc3ccc(-c4ccc5nc(-c6ccc(NC(=N)N)cc6)[nH]c5c4)cc3[nH]2)cc1 — MBNL1 exon 5 inclusion (wild-type fibroblasts; concentration not given): no effect
CCCCCCCCCCOCc1cn(CC2=CC[C@@H]3C(C(=O)OC)=CO[C@@H](O)[C@H]23)nn1 — viability (SK-N-SH; neuroprotection, MTT; 0.15 µM, 24 h, together with: 250 µM H2O2): 58.2 ± 0.3%
CC(C)C[C@H](NC(=O)[C@H](CO)NC(=O)[C@H](Cc1c[nH]c2ccccc12)NC(=O)[C@H](Cc1ccccc1)NC(=O)[C@H](Cc1ccccc1)NC(=O)[C@H](CCC(N)=O)NC(=O)[C@@H]1CCCN1C(=O)[C@H](CCCNC(=N)N)NC(=O)[C@H](CCCNC(=N)N)NC(=O)[C@H](CCCNC(=N)N)NC(=O)[C@H](CCC(N)=O)NC(=O)[C@H](CCCNC(=N)N)NC(=O)[C@H](CCCNC(=N)N)NC(=O)[C@H](CCCCN)NC(=O)[C@H](CCCCN)NC(=O)[C@H](CCCNC(=N)N)NC(=O)CNC(=O)[C@@H](N)Cc1ccc(O)cc1)C(=O)N[C@@H](CS)C(=O)N[C@H](C(=O)N[C@@H](C)C(=O)O)[C@@H](C)O — viable cells (Jurkat; trypan blue exclusion; 7.5 µM, 17 h, together with: zVAD-fmk 20 µM 30 min pretreatment): 11%
CCCCCCCCOCc1cn(CC2=CC[C@@H]3C(C(=O)OC)=CO[C@@H](OC(C)=O)[C@H]23)nn1 — viability (SK-N-SH; neuroprotection, MTT; 0.6 µM, 24 h, together with: 250 µM H2O2): 74.4 ± 0.6%
CC(C)(C)c1ccc(Nc2c3c(nc4ccccc24)CCCC3)cc1 — viability (SH-SY5Y; MTT; 50 µM, 1 h pretreatment, 10% FBS, together with: H2O2): 63.14 ± 0.44%
COC(=O)C1=CO[C@@H](O)[C@@H]2C(Cn3cc(C4(O)CCCC4)nn3)=CC[C@H]12 — viability (SK-N-SH; neuroprotection, MTT; 0.3 µM, 24 h, together with: 250 µM H2O2): 78.2 ± 0.9%
F[P-](F)(F)(F)(F)F.F[P-](F)(F)(F)(F)F.[Ru+2].c1ccc(-c2ccccn2)nc1.c1ccc(-c2ccccn2)nc1.c1csc(-c2ccc(-c3ccc(-c4cc5cccnc5c5ncccc45)s3)s2)c1 — EC50 (SK-MEL-28; cell viability, resazurin; 16 h drug-to-light interval, together with: visible light 100 J/cm2): 125 ± 3 nM
CN1C(=O)C2(Cc3ccc(CC45SSC(CO)(C(=O)N4C)N(C)C5=O)cc3)SSC1(CO)C(=O)N2C (racemic) — number of upregulated genes (MCF7; microarray; 600 nM, of 43 deferoxamine-induced genes ≥4-fold upregulated ≥2-fold, together with: deferoxamine): 2
COC(=O)C1=CO[C@@H](OC(C)=O)[C@@H]2C(Cn3cc(CCCO)nn3)=CC[C@H]12 — viability (SK-N-SH; neuroprotection, MTT; 0.6 µM, 24 h, together with: 250 µM H2O2): 60.8 ± 0.8%
COc1cc(C(=O)NCCOCCOCCOCCNC(=O)c2ccc([18F])nc2)ccc1NC(=O)C1NC(CC(C)(C)C)C(C#N)(c2ccc(Cl)cc2F)C1c1cccc(Cl)c1F (centres unmarked) — uptake (SJSA-1; baseline: added dose): ~70%
Cc1ccc(Nc2c(NC3CCN(Cc4ccccc4)CC3)c(=O)c2=O)cc1 — cell survival (SH-SY5Y; neuroprotection, MTT; 12.5 µM, 24 h pretreatment, together with: H2O2 650 µM for 4 h): 68.2%
COC(=O)C1=CO[C@@H](O)[C@@H]2C(Cn3cc(CON4C(=O)c5ccccc5C4=O)nn3)=CC[C@H]12 — viability (SK-N-SH; neuroprotection, MTT; 0.3 µM, 24 h, together with: 250 µM H2O2): 73.6 ± 1.6%
CC(C)CC(O)(CC(C)C)c1cn(C(=O)N2CCCC2)nn1 — SILAC ratio (mouse T-cells; N-terminal labeled proteins, N-terminal enrichment proteomics, item: NDUFV2; 1 nM, 6 h; baseline: DMSO): 3.09 ± 0.52
CC(C)=CCC/C(C)=C/C[P+](c1ccccc1)(c1ccccc1)c1ccccc1 — GI50 (SK-OV-3; cell growth or viability, MTT; 72 h): 1270 nM
C[OH+][Cu-2]12[O]C(c3cn(-c4ccccc4)nc3-c3ccc(Cl)cc3)=N[N+]1=C(C)c1c(cc(C)oc1=O)[O]2 (centres unmarked) — selectivity index (A549 and Vero cells; cell viability, MTT; baseline: IC50 Vero over IC50 A549): > 13 and 13.5
COC(=O)C1=CO[C@@H](OC(C)=O)[C@@H]2C(Cn3cc(CN(C)Cc4ccccc4)nn3)=CC[C@H]12 — viability (SK-N-SH; neuroprotection, MTT; 0.075 µM, 24 h, together with: 250 µM H2O2): 50.8%
CCC[P+](c1ccccc1)(c1ccccc1)c1ccccc1 — GI50 (SK-OV-3; cell growth or viability, MTT; 72 h): 4080 nM
COC(=O)C1=CO[C@@H](OC(C)=O)[C@@H]2C(Cn3cc(-c4ccc(F)cc4)nn3)=CC[C@H]12 — viability (SK-N-SH; neuroprotection, MTT; 0.075 µM, 24 h, together with: 250 µM H2O2): 70.9 ± 1.5%
CC=C(C)C(=O)OC1C2C3(C)CCC(OC4CC(OC)C(OC5OC(C)C(O)C(OC)C5O)C(C)O4)CC3CCC23OC32CCC(C(C)=O)C2(C)C1OC(C)=O (centres unmarked) — fold reversal of IC50 (MDA435/LCC6-MDR1; cell growth, MDR reversal, SRB; 10 µM, together with: doxorubicin; baseline: doxorubicin alone over combination): 4

For quick reference, copied from above:
CC(C)(C)c1ccc(Nc2c3c(nc4ccccc24)CCCC3)cc1 — viability (SH-SY5Y; MTT; 50 µM, 1 h pretreatment, 10% FBS, together with: H2O2): 63.14 ± 0.44%
COC(=O)C1=CO[C@@H](O)[C@@H]2C(Cn3cc(C4(O)CCCC4)nn3)=CC[C@H]12 — viability (SK-N-SH; neuroprotection, MTT; 0.3 µM, 24 h, together with: 250 µM H2O2): 78.2 ± 0.9%
F[P-](F)(F)(F)(F)F.F[P-](F)(F)(F)(F)F.[Ru+2].c1ccc(-c2ccccn2)nc1.c1ccc(-c2ccccn2)nc1.c1csc(-c2ccc(-c3ccc(-c4cc5cccnc5c5ncccc45)s3)s2)c1 — EC50 (SK-MEL-28; cell viability, resazurin; 16 h drug-to-light interval, together with: visible light 100 J/cm2): 125 ± 3 nM
